Assay results gathered from unrelated publications.
Parts stem from different laboratories: compare values within a part only. Substitutions count along the parent as printed.

Study 1
Target: CCNA1, cyclin fold, Cln2 fusion (human)
Method: yeast growth competition, sequencing
Medium: yeast
Setting: weak parent motif
Baseline: not given
Direction: higher = stronger binding
Starting sequence: RBL1 docking peptide (human); GSAKRRLFGEDPP; partner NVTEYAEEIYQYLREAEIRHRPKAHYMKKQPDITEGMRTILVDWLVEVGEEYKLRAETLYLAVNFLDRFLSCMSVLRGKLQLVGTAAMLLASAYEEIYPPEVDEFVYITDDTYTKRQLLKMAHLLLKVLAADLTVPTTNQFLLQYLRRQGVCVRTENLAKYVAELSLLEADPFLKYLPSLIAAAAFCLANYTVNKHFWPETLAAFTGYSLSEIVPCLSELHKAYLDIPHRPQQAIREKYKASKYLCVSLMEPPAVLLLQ
`D11E` — result for “normalised enrichment score”: 0.652.
`R6D`: “normalised enrichment score” -0.0447.
For `A3G`, “normalised enrichment score” read -0.0555.
For `G9E`, “normalised enrichment score” read 0.401.
Under “normalised enrichment score”, `R6L` is recorded as 0.162.
`F8Y`: “normalised enrichment score” 0.39.
`S2N`: “normalised enrichment score” 0.433.
`R6Y` — result for “normalised enrichment score”: 0.695.
`R5K F8L` — result for “normalised enrichment score”: -0.0331.
For `L7Q`, “normalised enrichment score” read 0.62.
For `P12N`, “normalised enrichment score” read 0.241.
Under “normalised enrichment score”, `D11I` is recorded as 0.639.
For `A3M`, “normalised enrichment score” read 0.143.
`E10T`: “normalised enrichment score” 0.326.
`F8Q`: “normalised enrichment score” 0.232.
`D11P`: “normalised enrichment score” 0.17.
Under “normalised enrichment score”, `F8K` is recorded as 0.594.
For `P13I`, “normalised enrichment score” read 0.698.
For `D11K`, “normalised enrichment score” read 0.584.
For `G1A`, “normalised enrichment score” read 0.384.
`D11L` — result for “normalised enrichment score”: 0.732.
Under “normalised enrichment score”, `P12I` is recorded as 0.484.
For `F8N`, “normalised enrichment score” read 0.375.
`K4A`: “normalised enrichment score” 0.636.
For `G1D`, “normalised enrichment score” read 0.533.

Study 2
Target: PABPC1L2, full length, GST fusion (mouse, UniProt A0ABA7IW68)
Method: RNAcompete
Molecule type: RNA
Medium: in vitro
Tested at: 20 nM
Setting: 7-mer, probes averaged, single round
Baseline: mean of 7-mers
Direction: higher = stronger binding
Residues (chain): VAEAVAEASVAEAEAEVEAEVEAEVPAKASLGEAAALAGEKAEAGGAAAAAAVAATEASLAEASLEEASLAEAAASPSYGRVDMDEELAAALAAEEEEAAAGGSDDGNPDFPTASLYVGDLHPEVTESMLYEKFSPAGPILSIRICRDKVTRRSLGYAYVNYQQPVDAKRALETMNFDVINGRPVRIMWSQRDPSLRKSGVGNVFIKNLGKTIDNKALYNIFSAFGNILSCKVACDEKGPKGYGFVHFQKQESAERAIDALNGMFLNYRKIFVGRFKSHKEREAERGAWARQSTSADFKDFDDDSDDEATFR
With `CGAAUUG` the 7-mer Z-score was -0.0754.
The 7-mer Z-score of `UUGUUUC` is reported as -0.508.
The 7-mer Z-score of `CUUGGUC` is reported as -0.244.
For `CCGGAUA`, the 7-mer Z-score was 0.00254.
`UCUUGCA` gave a 7-mer Z-score of -0.479.
The 7-mer Z-score of `ACCACAU` is reported as -0.00833.
For `UCCCGAG`, the 7-mer Z-score was -0.235.
For `UCACUCC`, the 7-mer Z-score was -0.262.
`UCCGUAG` has a 7-mer Z-score of -0.291.
`UGUUCUC` gave a 7-mer Z-score of -0.387.
`CCGCAAG` has a 7-mer Z-score of -0.353.
With `CACGGGA` the 7-mer Z-score was 0.0587.
`UCAGAUU` has a 7-mer Z-score of -0.199.
`AGGGCUU` has a 7-mer Z-score of -0.0736.
For `AACUUUG`, the 7-mer Z-score was -0.139.
With `CACCGAA` the 7-mer Z-score was 0.0406.
`GGGAUCC` has a 7-mer Z-score of 0.00979.
For `AUGAGAC`, the 7-mer Z-score was 0.102.
The 7-mer Z-score of `ACGGAGU` is reported as -0.0464.
With `GACGGGG` the 7-mer Z-score was -0.133.
The 7-mer Z-score of `GAGCACG` is reported as -0.226.
For `GUGGAUU`, the 7-mer Z-score was -0.115.
`CUUGGGG` has a 7-mer Z-score of 0.075.
The 7-mer Z-score of `AAUAGAC` is reported as 0.302.
With `CGAAGUU` the 7-mer Z-score was -0.122.

Study 3
Target: ABI1, truncated, D143A, DHFR fusion (Arabidopsis thaliana)
Method: DHFR PCA, deep sequencing
Medium: yeast
Setting: methotrexate growth selection, single substitutions
Together with: (+)-ABA 0.11 µM
Baseline: wild-type fitted maximum
Direction: higher = stronger binding
Starting sequence: PYL1, truncated, DHFR fusion (Arabidopsis thaliana); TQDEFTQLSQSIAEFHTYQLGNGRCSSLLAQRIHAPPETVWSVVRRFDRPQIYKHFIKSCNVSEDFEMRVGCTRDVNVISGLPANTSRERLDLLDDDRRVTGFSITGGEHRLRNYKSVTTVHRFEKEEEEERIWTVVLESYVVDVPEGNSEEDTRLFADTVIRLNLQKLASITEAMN
For `L169S`, “relative binding score” read -3.55%.
`E174Y`: “relative binding score” 5.16%.
Under “relative binding score”, `L93Q` is recorded as 5.39%.
`V62S` — result for “relative binding score”: 0.744%.
Under “relative binding score”, `R98G` is recorded as -5.68%.
`S140V`: “relative binding score” 3.05%.
`V137H` — result for “relative binding score”: -9.43%.
Under “relative binding score”, `L93R` is recorded as 8.67%.
Under “relative binding score”, `L138E` is recorded as -5.97%.
Under “relative binding score”, `M176G` is recorded as 12.5%.
Under “relative binding score”, `V121C` is recorded as -8.5%.
`L138G` — result for “relative binding score”: -1.02%.
Under “relative binding score”, `S9I` is recorded as 16.8%.
Under “relative binding score”, `E151Q` is recorded as 24.5%.
Under “relative binding score”, `S11G` is recorded as 6.2%.
Under “relative binding score”, `Q51L` is recorded as 0.501%.

Study 4
Target: Sal-like protein 4, full length isoform A (SALL4, Homo sapiens, UniProt Q9UJQ4, residues 1-1053)
Chain of UniProt Q9UJQ4 (whole entry, looked up): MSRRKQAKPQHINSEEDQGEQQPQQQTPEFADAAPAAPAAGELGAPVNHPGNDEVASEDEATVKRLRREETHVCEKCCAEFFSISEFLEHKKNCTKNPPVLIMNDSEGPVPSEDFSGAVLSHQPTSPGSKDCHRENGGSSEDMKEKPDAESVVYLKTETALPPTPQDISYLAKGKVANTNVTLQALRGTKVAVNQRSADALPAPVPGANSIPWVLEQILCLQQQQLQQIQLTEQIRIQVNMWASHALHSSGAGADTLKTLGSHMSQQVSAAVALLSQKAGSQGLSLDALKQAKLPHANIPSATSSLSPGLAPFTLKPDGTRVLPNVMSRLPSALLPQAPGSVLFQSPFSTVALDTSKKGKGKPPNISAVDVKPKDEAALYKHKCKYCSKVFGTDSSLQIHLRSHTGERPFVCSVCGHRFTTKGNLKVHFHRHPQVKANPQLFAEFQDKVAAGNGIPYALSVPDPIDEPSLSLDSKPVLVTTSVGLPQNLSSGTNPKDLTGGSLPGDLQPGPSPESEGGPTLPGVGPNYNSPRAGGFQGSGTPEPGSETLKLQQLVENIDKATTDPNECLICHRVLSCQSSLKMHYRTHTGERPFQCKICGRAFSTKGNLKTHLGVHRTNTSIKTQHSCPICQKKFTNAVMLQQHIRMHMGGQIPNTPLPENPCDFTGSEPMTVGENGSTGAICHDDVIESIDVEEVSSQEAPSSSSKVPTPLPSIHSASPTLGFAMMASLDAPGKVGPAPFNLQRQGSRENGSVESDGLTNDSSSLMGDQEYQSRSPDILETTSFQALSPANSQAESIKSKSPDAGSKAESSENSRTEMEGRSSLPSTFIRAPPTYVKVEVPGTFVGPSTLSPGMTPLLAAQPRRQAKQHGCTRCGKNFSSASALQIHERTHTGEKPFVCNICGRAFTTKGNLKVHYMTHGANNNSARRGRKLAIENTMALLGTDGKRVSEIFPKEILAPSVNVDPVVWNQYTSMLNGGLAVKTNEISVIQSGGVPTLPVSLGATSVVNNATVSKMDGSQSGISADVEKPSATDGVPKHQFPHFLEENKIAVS
Method: universal PBM
Molecule type: double-stranded DNA, one strand shown
Medium: in vitro
Tested at: 600 nM
Setting: 8-mer, flanks averaged, mean of replicates
Direction: higher = stronger binding
For `GTCAGACA`, the E-score was -0.0268.
With `TCATCAAA` the E-score was 0.149.
For `ATTGTTCA`, the E-score was 0.213.
With `ACTCTGTA` the E-score was 0.0685.
With `AACCATGT` the E-score was 0.0523.
For `GGATCGCA`, the E-score was -0.112.
For `ACCGGCTA`, the E-score was -0.151.
`CCGGGGAC` has an E-score of -0.347.
With `GAGCGAAC` the E-score was -0.165.
With `AAGCACCT` the E-score was -0.0632.
`GGTCCAAA` has an E-score of -0.0966.
`ACTGCGGG` gave an E-score of -0.191.
`TGGCCCAA` gave an E-score of -0.205.
`AGGCGATC` has an E-score of -0.183.
`AATGCTAG` gave an E-score of 0.0342.
The E-score of `TCAACTCA` is reported as 0.0448.
`CGCGTAAG` gave an E-score of -0.0114.
`TAGTGCCA` has an E-score of -0.138.
`AGATAAAC` has an E-score of 0.247.

Study 5
Target: CEP164, C-terminal peptide (human)
Method: DHFR complementation, deep sequencing
Medium: yeast
Setting: single substitutions, model-inferred values
Baseline: wild type
Direction: higher = weaker binding
Starting sequence: PDZK1, PDZ domain 2 (human); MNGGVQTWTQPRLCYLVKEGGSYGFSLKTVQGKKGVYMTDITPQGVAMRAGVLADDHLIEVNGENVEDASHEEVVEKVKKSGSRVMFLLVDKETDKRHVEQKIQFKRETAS; partner HNRVKVYRF
`R84F`: “binding free energy change” 0.248 kcal/mol.
`K80W` — result for “binding free energy change”: 0.833 kcal/mol.
`G51R` — result for “binding free energy change”: 1.38 kcal/mol.
Under “binding free energy change”, `E76S` is recorded as 0.0829 kcal/mol.
`E19W`: “binding free energy change” 0.327 kcal/mol.
`T109P`: “binding free energy change” -0.145 kcal/mol.
`G24R` — result for “binding free energy change”: 1.39 kcal/mol.
Under “binding free energy change”, `V61Q` is recorded as 0.98 kcal/mol.
`K28Y` — result for “binding free energy change”: -0.439 kcal/mol.
`E19V`: “binding free energy change” 0.249 kcal/mol.
Under “binding free energy change”, `I103T` is recorded as -0.0998 kcal/mol.
`E108V` — result for “binding free energy change”: -0.174 kcal/mol.
`T39L`: “binding free energy change” 0.303 kcal/mol.
Under “binding free energy change”, `K79P` is recorded as 0.689 kcal/mol.
`T109W` — result for “binding free energy change”: -0.144 kcal/mol.
Under “binding free energy change”, `E19N` is recorded as 0.109 kcal/mol.
`D55K` — result for “binding free energy change”: 0.621 kcal/mol.
`K18P`: “binding free energy change” 1.24 kcal/mol.
Under “binding free energy change”, `I103Q` is recorded as -0.107 kcal/mol.
`D40L` — result for “binding free energy change”: 0.874 kcal/mol.
`D55R`: “binding free energy change” 0.909 kcal/mol.
`T7C`: “binding free energy change” -0.103 kcal/mol.
Under “binding free energy change”, `V74A` is recorded as 0.264 kcal/mol.
`C14S` — result for “binding free energy change”: 0.555 kcal/mol.
Under “binding free energy change”, `V30L` is recorded as 0.425 kcal/mol.

Repeated from above (study 4):
`AGATAAAC` has an E-score of 0.247.
With `ACTCTGTA` the E-score was 0.0685.
`GGTCCAAA` has an E-score of -0.0966.
For `ATTGTTCA`, the E-score was 0.213.
With `GAGCGAAC` the E-score was -0.165.
`AATGCTAG` gave an E-score of 0.0342.
